Results pooled from the literature.
Compare with care: the assays were run in different laboratories. Values joined by “and” are separate records of one study, mostly repeats; a detail may differ. ± gives the spread as reported.
Chain of UniProt Q9UM07 (whole entry, looked up): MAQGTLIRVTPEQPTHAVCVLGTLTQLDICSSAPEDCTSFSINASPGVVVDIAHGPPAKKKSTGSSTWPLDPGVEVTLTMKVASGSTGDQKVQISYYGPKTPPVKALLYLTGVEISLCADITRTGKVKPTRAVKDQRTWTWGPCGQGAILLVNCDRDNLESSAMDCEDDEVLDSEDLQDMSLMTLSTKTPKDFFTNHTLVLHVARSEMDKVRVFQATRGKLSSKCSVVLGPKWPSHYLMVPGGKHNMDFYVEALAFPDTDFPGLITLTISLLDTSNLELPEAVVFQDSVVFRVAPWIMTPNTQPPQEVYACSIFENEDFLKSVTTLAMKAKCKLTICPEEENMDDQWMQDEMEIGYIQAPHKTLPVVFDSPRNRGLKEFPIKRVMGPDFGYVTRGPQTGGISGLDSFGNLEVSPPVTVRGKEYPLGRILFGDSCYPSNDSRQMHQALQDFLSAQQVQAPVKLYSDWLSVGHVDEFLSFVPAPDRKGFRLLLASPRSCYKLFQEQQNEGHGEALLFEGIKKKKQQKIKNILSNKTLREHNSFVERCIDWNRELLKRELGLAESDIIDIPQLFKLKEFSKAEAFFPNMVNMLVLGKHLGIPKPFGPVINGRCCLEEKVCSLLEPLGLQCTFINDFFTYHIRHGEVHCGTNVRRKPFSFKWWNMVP
Chain of UniProt Q9DB29 (whole entry, looked up): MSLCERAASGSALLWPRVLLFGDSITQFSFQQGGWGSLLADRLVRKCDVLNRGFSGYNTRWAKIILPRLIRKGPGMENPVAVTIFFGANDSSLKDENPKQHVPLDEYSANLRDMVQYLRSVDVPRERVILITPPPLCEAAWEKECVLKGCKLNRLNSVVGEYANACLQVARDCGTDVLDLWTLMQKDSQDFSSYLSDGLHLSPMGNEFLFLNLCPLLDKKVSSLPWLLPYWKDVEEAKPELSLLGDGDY
Chain of UniProt Q8IU85 (whole entry, looked up): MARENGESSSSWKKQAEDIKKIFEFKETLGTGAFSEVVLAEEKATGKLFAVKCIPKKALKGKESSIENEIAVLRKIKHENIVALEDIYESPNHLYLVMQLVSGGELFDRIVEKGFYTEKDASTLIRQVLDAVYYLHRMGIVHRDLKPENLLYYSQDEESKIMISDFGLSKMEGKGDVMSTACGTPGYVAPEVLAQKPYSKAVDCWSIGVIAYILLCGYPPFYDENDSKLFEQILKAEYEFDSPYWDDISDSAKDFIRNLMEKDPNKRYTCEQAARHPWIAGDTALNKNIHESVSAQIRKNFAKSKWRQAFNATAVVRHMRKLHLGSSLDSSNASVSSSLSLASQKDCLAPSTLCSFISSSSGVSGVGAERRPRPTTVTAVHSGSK
Chain of UniProt P22612 (whole entry, looked up): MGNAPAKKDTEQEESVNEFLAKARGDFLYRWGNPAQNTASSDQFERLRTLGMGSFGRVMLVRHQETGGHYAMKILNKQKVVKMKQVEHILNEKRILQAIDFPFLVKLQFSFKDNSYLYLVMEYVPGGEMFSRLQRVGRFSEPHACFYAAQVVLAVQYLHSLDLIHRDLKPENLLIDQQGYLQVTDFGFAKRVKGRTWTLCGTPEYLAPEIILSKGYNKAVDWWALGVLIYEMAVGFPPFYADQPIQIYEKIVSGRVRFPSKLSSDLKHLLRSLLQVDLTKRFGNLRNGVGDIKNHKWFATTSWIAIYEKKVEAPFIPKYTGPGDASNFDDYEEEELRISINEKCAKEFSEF
Chain of UniProt Q12866 (whole entry, looked up): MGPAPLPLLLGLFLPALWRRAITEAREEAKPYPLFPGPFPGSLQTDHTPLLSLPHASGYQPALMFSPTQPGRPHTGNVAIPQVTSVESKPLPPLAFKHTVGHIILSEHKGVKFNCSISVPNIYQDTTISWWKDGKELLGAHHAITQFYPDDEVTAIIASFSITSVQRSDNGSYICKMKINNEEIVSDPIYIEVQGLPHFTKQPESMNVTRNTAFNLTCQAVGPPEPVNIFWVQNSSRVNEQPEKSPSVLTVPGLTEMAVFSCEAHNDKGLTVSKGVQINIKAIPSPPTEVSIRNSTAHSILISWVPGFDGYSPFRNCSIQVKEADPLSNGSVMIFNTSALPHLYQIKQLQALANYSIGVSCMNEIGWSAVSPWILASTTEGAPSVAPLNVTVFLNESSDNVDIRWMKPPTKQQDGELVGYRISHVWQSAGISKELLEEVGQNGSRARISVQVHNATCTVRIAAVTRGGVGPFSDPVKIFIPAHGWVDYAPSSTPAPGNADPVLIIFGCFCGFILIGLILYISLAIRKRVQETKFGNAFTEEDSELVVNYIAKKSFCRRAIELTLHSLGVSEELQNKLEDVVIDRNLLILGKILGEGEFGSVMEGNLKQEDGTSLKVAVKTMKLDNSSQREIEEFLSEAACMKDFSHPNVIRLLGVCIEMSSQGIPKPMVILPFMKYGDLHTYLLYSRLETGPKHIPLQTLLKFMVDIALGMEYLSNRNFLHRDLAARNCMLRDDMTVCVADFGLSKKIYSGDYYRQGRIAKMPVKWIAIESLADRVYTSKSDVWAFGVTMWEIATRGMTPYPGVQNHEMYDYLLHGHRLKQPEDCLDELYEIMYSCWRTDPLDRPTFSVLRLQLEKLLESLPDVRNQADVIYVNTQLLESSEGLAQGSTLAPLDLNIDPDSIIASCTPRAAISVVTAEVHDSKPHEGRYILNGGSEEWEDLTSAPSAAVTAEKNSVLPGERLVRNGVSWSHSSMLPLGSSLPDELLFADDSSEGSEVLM
Chain of UniProt Q13572 (whole entry, looked up): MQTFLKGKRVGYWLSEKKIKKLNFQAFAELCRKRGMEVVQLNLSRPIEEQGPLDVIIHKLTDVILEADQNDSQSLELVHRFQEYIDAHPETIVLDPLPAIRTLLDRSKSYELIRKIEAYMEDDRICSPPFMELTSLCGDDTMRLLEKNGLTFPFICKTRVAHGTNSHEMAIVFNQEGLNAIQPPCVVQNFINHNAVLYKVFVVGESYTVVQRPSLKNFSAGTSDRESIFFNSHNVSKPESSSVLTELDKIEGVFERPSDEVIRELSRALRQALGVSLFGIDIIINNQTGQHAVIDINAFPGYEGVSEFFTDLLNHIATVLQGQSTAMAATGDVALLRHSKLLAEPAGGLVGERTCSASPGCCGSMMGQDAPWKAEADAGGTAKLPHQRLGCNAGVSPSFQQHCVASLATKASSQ
Chain of UniProt Q13153 (whole entry, looked up): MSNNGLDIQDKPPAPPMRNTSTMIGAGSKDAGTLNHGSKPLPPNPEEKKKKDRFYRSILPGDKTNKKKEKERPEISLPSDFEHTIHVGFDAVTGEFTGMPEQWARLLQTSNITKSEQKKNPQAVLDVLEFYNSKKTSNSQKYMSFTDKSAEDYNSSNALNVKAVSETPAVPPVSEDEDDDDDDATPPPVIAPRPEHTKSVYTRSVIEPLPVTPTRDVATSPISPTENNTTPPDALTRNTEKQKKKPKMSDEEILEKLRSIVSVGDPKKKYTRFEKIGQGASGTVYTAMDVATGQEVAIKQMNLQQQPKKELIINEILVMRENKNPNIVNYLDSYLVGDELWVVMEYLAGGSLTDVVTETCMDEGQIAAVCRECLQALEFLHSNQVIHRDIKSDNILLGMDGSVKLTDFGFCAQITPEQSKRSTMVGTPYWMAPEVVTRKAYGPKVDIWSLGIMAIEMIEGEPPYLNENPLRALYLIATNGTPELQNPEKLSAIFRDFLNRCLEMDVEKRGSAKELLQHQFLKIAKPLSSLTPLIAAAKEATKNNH

`Nc1ccc(/C=C/C(=O)N2CCc3c(oc4c(-c5ccc(F)cc5)cc(-c5ccc(C(=O)N6CCC(F)(F)CC6)cn5)cc34)C2)cn1` has a remaining binding of 92% (Serine/threonine-protein kinase PAK 1 (PAK1, Homo sapiens, UniProt Q13153); binding, competition with immobilised ligand; 1 µM).
`CN(C)[C@H]1C[C@@]23CC[C@@]4(O2)C(=CC[C@]2(C)[C@@H](c5ccc6ccncc6c5)CC[C@H]24)C=C3[C@@H](O)[C@@H]1O` gave an inhibition of 5.3% (Inositol-tetrakisphosphate 1-kinase (Homo sapiens, UniProt Q13572); ATP probe labelling, inhibitor, KiNativ profiling; 0.1 µM).
The melting temperature of `N[C@H](C(=O)N1CCCC1)C1CCN(c2nccc3c(-c4ncc(Cl)cc4Cl)cccc23)CC1` is reported as 62.1 °C and 61.8 °C (Protein-arginine deiminase type-4 (PADI4, Homo sapiens, UniProt Q9UM07); thermal shift; 3.004 µM).
`CC(C)[C@H]1NC(=O)C[C@H]2/C=C/CCSSC[C@@H](NC1=O)C(=O)N[C@H](Cc1cccc3ccccc13)C(=O)NCC(=O)O2` has an inhibition of -0.2% (cAMP-dependent protein kinase catalytic subunit gamma (PRKACG, Homo sapiens, UniProt P22612); enzyme activity, inhibitor; 10 µM).
`CS(C)(=O)=Nc1ccc(-c2ccc(-c3nc4cc(O[C@@H]5CO[C@H]6[C@@H]5OC[C@H]6O)[nH]c4cc3F)cc2)cc1` has an inhibition of -13% (Calcium/calmodulin-dependent protein kinase type 1D (CAMK1D, Homo sapiens, UniProt Q8IU85); enzyme activity, inhibitor; 10 µM).
The translation activity of `CCCC1COC(Cn2cncn2)(c2ccc(Cl)cc2Cl)O1` (centres unmarked) is reported as 87.8% and 93.5% (Trypanosoma cruzi; reporter mRNA translation, inhibitor, refers to: Renilla luciferase mRNA; cell-free extract; concentration not given, test 1; reference: positive over negative control).
For `Cc1sc2c(c1C)C(c1ccc(Cl)cc1)=N[C@@H](CC(=O)OC(C)(C)C)c1nnc(C)n1-2`, the observed ΔH was -8.3 ± 0.024 kcal/mol (Bromodomain testis-specific protein, BD1 (BRDT, Homo sapiens, UniProt Q58F21); isothermal titration calorimetry; 15 °C, reverse titration).
`CCOc1ccc(CNCCc2ccc3c(c2)OCO3)cc1` gave a relative translation of 104% (Trypanosoma cruzi; reporter mRNA translation, inhibitor, refers to: capped polyadenylated Renilla luciferase mRNA; cell-free extract; concentration not given; reference: control RNA).
`O=C1NC2(CC2)COc2ncc(F)cc2[C@H]2COCCN2c2ccn3ncc1c3n2`: “mean corpuscular haemoglobin concentration” 309 ± 14 g/L (Sprague-Dawley rat, male, blood; oral, 20 mg/kg/day, 4 weeks, end of recovery, subacute toxicity).
For `O=C1NC(=O)c2c1c1cc(F)c[n+]3c1c1c2c2cc(O)ccc2[n]1[Ru-4]312([N]=C=S)[S+]3CC[S+]1CC[S+]2CC3` (centres unmarked), the remaining activity was 4% (Tyrosine-protein kinase Mer (MERTK, Homo sapiens, UniProt Q12866); enzyme activity; 100 nM, human enzyme, together with: 10 µM ATP; reference: untreated).
For `CC(C)CC(O)(CC(C)C)c1cn(C(=O)N2CCCC2)nn1`, “activity-based probe labelling ratio” read 1.57 (Isoamyl acetate-hydrolyzing esterase 1 homolog (Iah1, Mus musculus, UniProt Q9DB29); mouse, brain; concentration not given; reference: vehicle over compound).

A few entries again:
`CN(C)[C@H]1C[C@@]23CC[C@@]4(O2)C(=CC[C@]2(C)[C@@H](c5ccc6ccncc6c5)CC[C@H]24)C=C3[C@@H](O)[C@@H]1O` gave an inhibition of 5.3% (Inositol-tetrakisphosphate 1-kinase (Homo sapiens, UniProt Q13572); ATP probe labelling, inhibitor, KiNativ profiling; 0.1 µM).
`O=C1NC2(CC2)COc2ncc(F)cc2[C@H]2COCCN2c2ccn3ncc1c3n2`: “mean corpuscular haemoglobin concentration” 309 ± 14 g/L (Sprague-Dawley rat, male, blood; oral, 20 mg/kg/day, 4 weeks, end of recovery, subacute toxicity).
